Results gathered from unrelated publications.
Numbered parts are unrelated; each lists some results of a single study.
Sequence of UniProt O75747 (whole entry, looked up): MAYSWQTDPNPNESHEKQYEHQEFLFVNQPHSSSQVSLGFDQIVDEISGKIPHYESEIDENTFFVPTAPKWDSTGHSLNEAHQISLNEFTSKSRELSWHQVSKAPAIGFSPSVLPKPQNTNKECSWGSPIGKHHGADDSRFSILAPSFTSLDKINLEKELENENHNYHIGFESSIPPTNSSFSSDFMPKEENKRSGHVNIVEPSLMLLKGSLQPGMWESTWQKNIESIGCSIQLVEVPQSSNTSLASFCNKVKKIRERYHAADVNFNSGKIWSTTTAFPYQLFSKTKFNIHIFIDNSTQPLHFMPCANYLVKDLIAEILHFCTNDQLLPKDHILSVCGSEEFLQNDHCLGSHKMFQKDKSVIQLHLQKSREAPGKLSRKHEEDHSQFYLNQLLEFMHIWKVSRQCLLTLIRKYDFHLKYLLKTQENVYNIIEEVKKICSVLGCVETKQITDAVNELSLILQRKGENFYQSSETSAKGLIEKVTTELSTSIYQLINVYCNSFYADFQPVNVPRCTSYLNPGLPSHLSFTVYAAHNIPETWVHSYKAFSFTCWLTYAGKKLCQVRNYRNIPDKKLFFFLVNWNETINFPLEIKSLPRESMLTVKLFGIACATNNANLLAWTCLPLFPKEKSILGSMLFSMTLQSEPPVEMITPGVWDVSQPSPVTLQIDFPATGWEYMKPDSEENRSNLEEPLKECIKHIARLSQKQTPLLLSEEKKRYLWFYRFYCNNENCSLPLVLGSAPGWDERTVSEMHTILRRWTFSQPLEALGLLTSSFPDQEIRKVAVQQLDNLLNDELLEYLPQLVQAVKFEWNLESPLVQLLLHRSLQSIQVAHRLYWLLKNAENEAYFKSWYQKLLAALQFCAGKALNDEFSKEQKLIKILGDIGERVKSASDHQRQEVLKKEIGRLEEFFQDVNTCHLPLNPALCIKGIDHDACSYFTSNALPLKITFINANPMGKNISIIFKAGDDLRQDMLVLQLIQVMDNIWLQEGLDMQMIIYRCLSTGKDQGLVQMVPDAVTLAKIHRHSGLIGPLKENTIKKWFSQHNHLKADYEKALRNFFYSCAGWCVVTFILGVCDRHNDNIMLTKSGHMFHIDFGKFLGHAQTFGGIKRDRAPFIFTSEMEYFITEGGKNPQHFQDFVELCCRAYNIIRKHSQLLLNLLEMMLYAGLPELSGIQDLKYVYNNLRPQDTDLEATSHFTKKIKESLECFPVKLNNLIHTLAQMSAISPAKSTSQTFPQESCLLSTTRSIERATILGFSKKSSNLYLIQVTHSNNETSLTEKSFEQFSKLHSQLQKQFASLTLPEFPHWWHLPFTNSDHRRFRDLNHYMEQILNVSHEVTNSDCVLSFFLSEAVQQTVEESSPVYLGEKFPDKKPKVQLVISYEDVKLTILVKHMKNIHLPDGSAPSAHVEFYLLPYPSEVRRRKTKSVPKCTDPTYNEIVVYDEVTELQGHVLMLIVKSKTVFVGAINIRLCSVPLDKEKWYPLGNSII
Sequence of UniProt P54764 (whole entry, looked up): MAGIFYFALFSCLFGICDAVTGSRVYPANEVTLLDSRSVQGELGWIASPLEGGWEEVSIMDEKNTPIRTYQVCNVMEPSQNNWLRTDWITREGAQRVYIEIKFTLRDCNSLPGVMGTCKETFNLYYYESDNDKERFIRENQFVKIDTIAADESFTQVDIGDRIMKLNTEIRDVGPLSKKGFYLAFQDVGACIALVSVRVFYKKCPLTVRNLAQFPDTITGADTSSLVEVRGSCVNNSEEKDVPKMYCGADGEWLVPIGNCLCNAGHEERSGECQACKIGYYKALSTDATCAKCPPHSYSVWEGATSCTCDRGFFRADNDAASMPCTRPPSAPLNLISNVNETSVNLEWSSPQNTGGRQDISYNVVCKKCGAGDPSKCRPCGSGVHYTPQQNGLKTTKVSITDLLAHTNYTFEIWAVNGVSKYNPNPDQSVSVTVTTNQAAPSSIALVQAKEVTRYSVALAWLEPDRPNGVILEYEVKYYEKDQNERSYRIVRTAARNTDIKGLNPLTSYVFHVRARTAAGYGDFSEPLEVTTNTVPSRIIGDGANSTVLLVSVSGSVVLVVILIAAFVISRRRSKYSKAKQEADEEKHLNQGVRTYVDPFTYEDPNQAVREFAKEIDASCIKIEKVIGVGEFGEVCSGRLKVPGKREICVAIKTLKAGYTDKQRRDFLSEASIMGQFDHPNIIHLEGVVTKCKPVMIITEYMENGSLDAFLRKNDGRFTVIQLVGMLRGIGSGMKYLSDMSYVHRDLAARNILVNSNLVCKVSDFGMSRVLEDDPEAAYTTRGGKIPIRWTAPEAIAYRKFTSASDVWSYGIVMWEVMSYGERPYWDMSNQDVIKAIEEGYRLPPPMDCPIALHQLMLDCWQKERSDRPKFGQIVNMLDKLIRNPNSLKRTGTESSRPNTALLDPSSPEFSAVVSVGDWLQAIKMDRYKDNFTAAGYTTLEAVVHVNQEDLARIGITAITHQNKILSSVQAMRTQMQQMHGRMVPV
Sequence of UniProt P10721 (whole entry, unmodified, looked up): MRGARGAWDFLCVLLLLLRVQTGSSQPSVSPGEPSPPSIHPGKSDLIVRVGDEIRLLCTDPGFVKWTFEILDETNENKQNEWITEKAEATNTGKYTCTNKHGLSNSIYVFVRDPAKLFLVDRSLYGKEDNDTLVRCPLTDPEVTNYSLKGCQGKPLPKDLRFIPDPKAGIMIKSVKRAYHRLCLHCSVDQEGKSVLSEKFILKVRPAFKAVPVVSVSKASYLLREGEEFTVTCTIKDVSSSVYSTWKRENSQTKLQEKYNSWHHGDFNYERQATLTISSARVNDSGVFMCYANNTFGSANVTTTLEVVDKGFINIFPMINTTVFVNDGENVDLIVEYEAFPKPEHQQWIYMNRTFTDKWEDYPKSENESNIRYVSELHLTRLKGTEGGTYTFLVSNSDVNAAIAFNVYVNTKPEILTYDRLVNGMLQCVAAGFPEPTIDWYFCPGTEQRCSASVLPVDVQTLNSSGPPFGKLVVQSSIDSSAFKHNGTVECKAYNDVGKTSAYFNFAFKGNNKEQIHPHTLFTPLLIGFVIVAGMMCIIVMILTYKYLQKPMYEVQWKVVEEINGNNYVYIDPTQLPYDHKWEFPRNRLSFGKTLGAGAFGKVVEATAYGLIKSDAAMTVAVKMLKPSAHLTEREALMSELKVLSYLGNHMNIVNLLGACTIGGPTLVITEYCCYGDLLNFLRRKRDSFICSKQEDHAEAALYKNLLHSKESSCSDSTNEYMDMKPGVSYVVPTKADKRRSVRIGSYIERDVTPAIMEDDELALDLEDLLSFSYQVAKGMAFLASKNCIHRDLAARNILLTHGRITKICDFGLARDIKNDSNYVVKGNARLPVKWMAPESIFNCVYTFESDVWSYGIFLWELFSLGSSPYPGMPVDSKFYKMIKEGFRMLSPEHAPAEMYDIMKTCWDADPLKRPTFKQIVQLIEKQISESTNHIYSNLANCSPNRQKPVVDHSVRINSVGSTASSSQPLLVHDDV
Sequence of UniProt Q9UK32 (whole entry, looked up): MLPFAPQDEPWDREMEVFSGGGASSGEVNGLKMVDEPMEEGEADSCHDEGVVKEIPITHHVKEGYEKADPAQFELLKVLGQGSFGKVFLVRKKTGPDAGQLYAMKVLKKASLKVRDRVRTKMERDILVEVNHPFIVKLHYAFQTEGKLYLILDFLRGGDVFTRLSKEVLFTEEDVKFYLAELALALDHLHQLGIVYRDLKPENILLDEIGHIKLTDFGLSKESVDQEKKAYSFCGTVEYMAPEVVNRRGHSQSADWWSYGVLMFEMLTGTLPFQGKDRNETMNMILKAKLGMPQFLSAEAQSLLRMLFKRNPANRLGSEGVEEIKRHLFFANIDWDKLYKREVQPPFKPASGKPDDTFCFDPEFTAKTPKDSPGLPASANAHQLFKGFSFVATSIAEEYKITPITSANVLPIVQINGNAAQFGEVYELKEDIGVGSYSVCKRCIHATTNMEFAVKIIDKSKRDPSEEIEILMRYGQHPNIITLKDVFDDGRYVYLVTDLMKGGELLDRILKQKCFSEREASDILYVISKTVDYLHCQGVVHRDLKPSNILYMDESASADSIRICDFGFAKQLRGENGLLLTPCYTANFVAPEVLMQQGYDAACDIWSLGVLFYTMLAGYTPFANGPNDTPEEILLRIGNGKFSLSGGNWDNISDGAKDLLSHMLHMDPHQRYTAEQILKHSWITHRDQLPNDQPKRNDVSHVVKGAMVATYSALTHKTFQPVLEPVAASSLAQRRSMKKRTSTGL
Sequence of UniProt Q9P1W9 (whole entry, looked up): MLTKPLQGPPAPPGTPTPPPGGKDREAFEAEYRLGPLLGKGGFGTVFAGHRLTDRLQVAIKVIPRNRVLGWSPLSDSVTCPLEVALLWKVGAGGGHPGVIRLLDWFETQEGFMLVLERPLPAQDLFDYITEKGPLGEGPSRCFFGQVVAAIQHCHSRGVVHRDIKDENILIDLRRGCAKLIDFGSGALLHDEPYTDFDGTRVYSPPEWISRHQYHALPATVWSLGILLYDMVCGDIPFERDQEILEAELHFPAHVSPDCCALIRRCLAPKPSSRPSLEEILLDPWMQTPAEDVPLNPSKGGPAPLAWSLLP
Sequence of UniProt Q9H3Y6 (whole entry, looked up): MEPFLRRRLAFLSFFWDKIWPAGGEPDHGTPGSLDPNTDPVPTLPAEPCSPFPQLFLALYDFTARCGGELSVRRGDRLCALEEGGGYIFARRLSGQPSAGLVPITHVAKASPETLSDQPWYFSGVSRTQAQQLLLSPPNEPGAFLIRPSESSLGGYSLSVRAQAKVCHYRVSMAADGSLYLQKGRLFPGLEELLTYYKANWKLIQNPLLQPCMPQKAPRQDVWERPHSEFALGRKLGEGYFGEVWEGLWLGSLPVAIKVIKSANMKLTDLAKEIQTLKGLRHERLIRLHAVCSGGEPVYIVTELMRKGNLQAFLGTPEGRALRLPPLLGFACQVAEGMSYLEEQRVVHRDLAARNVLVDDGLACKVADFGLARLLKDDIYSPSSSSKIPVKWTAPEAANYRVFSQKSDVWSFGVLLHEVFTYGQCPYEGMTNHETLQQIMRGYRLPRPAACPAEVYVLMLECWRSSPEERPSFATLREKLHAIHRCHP

Study 1
Structure (SMILES): CCCOc1ccc([C@H]2[C@H](C(=O)O)[C@@H](c3ccc4c(c3)OCO4)CN2CC(=O)Nc2c(CC)cccc2CC)cc1
Effect on: cell-free assay
Method: competition with immobilised ligand
Concentration: 1 µM
It gave 75% for remaining binding (PIK3C2G (Homo sapiens, UniProt O75747)).
SLK (Homo sapiens, UniProt Q9H2G2) — remaining binding: 100%.
It gave 91% for remaining binding (PIK3CA (Homo sapiens, UniProt P42336, M1043I)).
The remaining binding was 91% (PIM2 (Homo sapiens, UniProt Q9P1W9)).
NUAK2 (Homo sapiens, UniProt Q9H093) — remaining binding: 57%.
KIT (Homo sapiens, UniProt P10721, V559D) — remaining binding: 87%.
The remaining binding was 84% (TAOK1 (Homo sapiens, UniProt Q7L7X3)).
It gave 86% for remaining binding (PIKFYVE (Homo sapiens, UniProt Q9Y2I7)).
HIPK1 (Homo sapiens, UniProt Q86Z02) — remaining binding: 75%.
The remaining binding was 89% (DAPK3 (Homo sapiens, UniProt O43293)).
It gave 74% for remaining binding (Ribosomal protein S6 kinase alpha-1, C-terminal kinase domain (RPS6KA1, Homo sapiens, UniProt Q15418)).
ABL2 (Homo sapiens, UniProt P42684) — remaining binding: 100%.
The remaining binding was 98% (PTK2B (Homo sapiens, UniProt Q14289)).
It gave 91% for remaining binding (MYLK2 (Homo sapiens, UniProt Q9H1R3)).
For Tyrosine-protein kinase JAK1, JH1 (JAK1, Homo sapiens, UniProt P23458): remaining binding read 95%.

Study 2
SMILES: Cn1cc(/C=C2\C(=O)Nc3ccc(S(N)(=O)=O)cc32)c2ccccc21
Effect on: enzyme activity
Mode: inhibitor
Concentration: 0.5 µM
Baseline: control
The remaining activity was 84% (TSSK2 (Homo sapiens, UniProt Q96PF2)).
HIPK2 (Homo sapiens, UniProt Q9H2X6) — remaining activity: 82.6%.
It gave 89.7% for remaining activity (DYRK3 (Homo sapiens, UniProt O43781)).
For SRMS (Homo sapiens, UniProt Q9H3Y6): remaining activity read 99.8%.
It gave 78.7% for remaining activity (STK16 (Homo sapiens, UniProt O75716)).
For EPHB4 (Homo sapiens, UniProt P54760): remaining activity read 57.4%.
For WNK3 (Homo sapiens, UniProt Q9BYP7): remaining activity read 99%.
It gave 57.5% for remaining activity (STK17A (Homo sapiens, UniProt Q9UEE5)).
PHKG1 (Homo sapiens, UniProt Q16816) — remaining activity: 20.6%.
The remaining activity was 95% (PDPK1 (Homo sapiens, UniProt O15530)).
The remaining activity was 22.5% (MAP4K4 (Homo sapiens, UniProt O95819)).
For Cyclin-dependent kinase 4, with cyclin D3 (CDK4, Homo sapiens, UniProt P11802): remaining activity read 94%.
The remaining activity was 49.2% (AXL (Homo sapiens, UniProt P30530)).
Cyclin-dependent kinase 6, with cyclin D3 (CDK6, Homo sapiens, UniProt Q00534) — remaining activity: 81.4%.
CAMK2B (Homo sapiens, UniProt Q13554) — remaining activity: 86.5%.
For BLK (Homo sapiens, UniProt P51451): remaining activity read 42.9%.
The remaining activity was 49.6% (Cyclin-dependent kinase 1, with cyclin B (CDK1, Homo sapiens, UniProt P06493)).
For MAPKAPK3 (Homo sapiens, UniProt Q16644): remaining activity read 91.5%.
For EPHB1 (Homo sapiens, UniProt P54762): remaining activity read 68.7%.
For RPS6KA5 (Homo sapiens, UniProt O75582): remaining activity read 80.9%.
For RPS6KA6 (Homo sapiens, UniProt Q9UK32): remaining activity read 6.55%.
It gave 80.5% for remaining activity (EPHA4 (Homo sapiens, UniProt P54764)).
For PRKACG (Homo sapiens, UniProt P22612): remaining activity read 101%.
For HIPK4 (Homo sapiens, UniProt Q8NE63): remaining activity read 86.2%.

Study 3
SMILES: CC(=O)N[C@@H](Cc1c[nH]c2ccccc12)C(=O)N[C@@H](CCC(=O)C=[N+]=[N-])C(=O)OC(C)C
Medium: EL4 tumour
Dose: dose not given
It gave 0.372 for fold change (measured: betaine aldehyde; Mus musculus; baseline: over vehicle).
measured: phosphopantetheine; mouse, EL4 tumour-bearing; baseline: vehicle — fold change: 0.27.
For measured: carotene diol; Mus musculus; baseline: over vehicle: fold change read 2.27.
It gave 4.21 for fold change (measured: glucose; mouse, EL4 tumour-bearing; baseline: vehicle).
metabolomics, measured: cytidine 2',3'-cyclic monophosphate; mouse; baseline: vehicle — fold change: 4.12.
The fold change was 3.25 (measured: sucrose; mouse, EL4 tumour-bearing; baseline: vehicle).
measured: 1-methylguanidine; mouse, EL4 tumour-bearing; baseline: vehicle — fold change: 6.06.
The fold change was 2.12 (measured: mannose; mouse, EL4 tumour-bearing; baseline: vehicle).
For measured: quinate; mouse, EL4 tumour-bearing; baseline: vehicle: fold change read 6.53.

Study 4
Species: human
Medium: microsomes or S9
Concentration: 2 µM
Time: 0.5 h
NC(CC(=O)N1CCCCN1)Cc1ccccc1F (stereo not shown) has a remaining compound of 91%.
With COc1ccc2c(c1)cc(C(=O)Nc1c(C)cccc1C)n2C the remaining compound was 39.3%.
Cc1nc(C2(NS(=O)(=O)c3c(C)c(C)c(C)c(C)c3C)CCCC2)no1 gave a remaining compound of 1.39%.
For Nc1ccc(CCNC[C@H](O)c2ccccc2)cc1, the remaining compound was 73.1%.
The remaining compound of CC1(C)C=C(Br)c2ccnc(-c3ccc(S(C)(=O)=O)cc3F)c2O1 is reported as 4.39%.
With CC(C)(C)Nc1nc(Cl)nc(NC(C)(C)CO)n1 the remaining compound was over 99.9%.
For Cc1ccc(CN(CCCn2ccnc2)Cc2ccc3ncccc3c2)s1, the remaining compound was 11.4%.
For Cc1ccccc1-c1nc2ccccc2cc1C(C)n1c(=O)n(-c2ccc(O)c(F)c2)c2cnc(N)nc21 (stereo not shown), the remaining compound was 35.7%.
O=c1c2ccc(Cl)cc2ncn1CCS(=O)(=O)c1cc(Cl)ccc1Cl gave a remaining compound of 78.6%.
With COc1cc(Nc2ncnc3cc(OC)c(OCC4CN(C(=O)OC(C)(C)C)CCO4)cc23)ccc1Cl (stereo not shown) the remaining compound was 27.8%.

For quick reference, copied from above (study 4):
With COc1ccc2c(c1)cc(C(=O)Nc1c(C)cccc1C)n2C the remaining compound was 39.3%.
Cc1nc(C2(NS(=O)(=O)c3c(C)c(C)c(C)c(C)c3C)CCCC2)no1 gave a remaining compound of 1.39%.
For Cc1ccccc1-c1nc2ccccc2cc1C(C)n1c(=O)n(-c2ccc(O)c(F)c2)c2cnc(N)nc21 (stereo not shown), the remaining compound was 35.7%.
For Nc1ccc(CCNC[C@H](O)c2ccccc2)cc1, the remaining compound was 73.1%.
NC(CC(=O)N1CCCCN1)Cc1ccccc1F (stereo not shown) has a remaining compound of 91%.
